Measured values from different studies.
Each line is one published result; not all experiments were run side by side. ± gives the spread as reported. In brackets after ≈: the same amount, converted by molar mass.

O=C(CN1CCOCC1)Nc1ccc([C@H]2[C@@H](F)[C@@H](F)C[C@@H](F)[C@H]2F)cc1  hepatic clearance (hepatocyte stability; cryopreserved rat hepatocytes; 1 µM): 13 mL/min/kg
Cc1cc(-c2ccc(C(=O)[C@@H]3CCCC[C@H]3C(=O)Nc3cnn4c3C(=O)NCC4)cc2)[nH]n1  radioactivity recovery per interval (human, faeces; oral, 200 mg, 264-288 h; reference: dose): 0.31%
O=C1c2sc(-c3ccc(N4CCC(CO)CC4)nc3F)nc2CCN1c1cccnc1  parent share of total peak area (LC-MS; human hepatocytes; 5 µM, 60 min): 54%
O=S1(=O)CC2CCCCC2CS1 (stereo not drawn)  solubility (phase solubility, NMR; water; 25 °C, added: hydroxypropyl-β-cyclodextrin 1148 mM): 135 mM (≈ 27.9 mg/mL)
O=C(Nc1cnccc1-c1ccc([18F])nc1)c1ccnc(NC(=O)C2CC2)c1  mean SUV (ex vivo gamma counting; FVB/NJ mice, both sexes, caudate nucleus; intravenous, 120 min): 0.026
CNC(=O)c1ccc(C2CCCCC2)cc1  hepatic clearance (liver microsome stability; human liver microsomes; 1 µM, without NADPH): 5.2 mL/min/kg
CC(C)C[C@H](NC(=O)[C@H](CCCN)NC(=O)CNC(=O)[C@@H](NC(=O)[C@H](C)NC(=O)[C@@H]1CSCSC[C@H](NC(=O)CC[C@H](N)C(=O)O)C(=O)N[C@@H](CC(N)=O)C(=O)N[C@@H]([C@@H](C)O)C(=O)N[C@@H](C)C(=O)N[C@@H]([C@@H](C)O)C(=O)N1)[C@@H](C)O)C(=O)N[C@@H](C)C(=O)N[C@@H](CCC(=O)O)C(=O)N[C@@](C)(Cc1ccccc1)C(=O)N[C@@H](CC(C)C)C(=O)N[C@H](C(=O)N[C@@H](CCCNC(=N)N)C(=O)N[C@@H](CO)C(=O)N[C@@H](CO)C(=O)N[C@@H](CC(N)=O)C(=O)N(C)[C@@H](CC(N)=O)C(=O)N[C@@H](Cc1ccccc1)C(=O)NCC(=O)N1CCC[C@H]1C(=O)N[C@@H](CCCCNC(=O)CC[C@H](NC(=O)CC[C@H](NC(=O)CCCCCCCCCCCCCCCCCCC(=O)O)C(=O)O)C(=O)O)C(=O)N[C@@H](CC(C)C)C(=O)N1CCC[C@H]1C(=O)N1CCC[C@H]1C(=O)N[C@H](C(=O)N[C@@H](CCC(=O)O)C(=O)N[C@H](C(=O)NCC(=O)N[C@@H](CO)C(=O)N[C@@H](CC(N)=O)C(=O)N[C@H](C(=O)N[C@@H](Cc1ccc(O)cc1)C(N)=O)[C@@H](C)O)C(C)C)[C@@H](C)O)C(C)C  half-life (human, plasma; subcutaneous, 0.4 mg, single dose, healthy volunteers): 14.7 days
COc1cccc(OC)c1-c1cc(C(=O)NC2(C(=O)O)C3CC4CC(C3)CC2C4)nn1-c1ccc(C(=O)NCCNC(=O)[C@H](CCCCNC(=O)[C@H](CC(C)C)NC(=O)C2OC2C(=O)O)NC(=O)CN2CCN(CC(=O)[O-])CCN(CC(=O)[O-])CCN(CC(=O)[O-])CC2)cc1C(C)C.[177Lu+3] (mixture of isomers)  tumour-to-kidney ratio (mouse, HT-29 xenograft; 168 h post injection, biodistribution; reference: tumour over kidney uptake): 2.72
O=C(Nc1cnccc1-c1ccc([18F])cc1)c1ccnc(NC(=O)C2CC2)c1  SUV (mice, transgenic, GSK-3β, early-stage, large intestine; intravenous, dose not given, 120 min): 0.48
COc1cccc(OC)c1-c1cc(C(=O)NC2(C(=O)O)C3CC4CC(C3)CC2C4)nn1-c1ccc(C(=O)N(C)CCCN(C)C(=O)[C@H](CCCCNC(=O)[C@H](CC(C)C)NC(=O)C2OC2C(=O)O)NC(=O)CN2CCN(CC(=O)[O-])CCN(CC(=O)[O-])CCN(CC(=O)[O-])CC2)cc1C(C)C.[177Lu+3] (mixture of isomers)  tumour-to-blood ratio (mouse, HT-29 xenograft; 24 h post injection, biodistribution; reference: tumour over blood uptake): 20.3
CN(C)C(=O)CNC(=O)c1ccc([C@H]2[C@@H](F)[C@@H](F)C[C@@H](F)[C@H]2F)cc1  hepatic clearance (liver microsome stability; dog liver microsomes; 1 µM): 7.3 mL/min/kg
O=C(N1CCCCC1)C12CC(c3ccccc3)(C1)C2(F)F  compound remaining (metabolic stability; human, liver microsomes; 2 µM, 25 min, pH 7.4): 84%
Cc1cc(/C=C/C#N)cc(C)c1Oc1nc(NC2CCN(Cc3ccc(S(C)(=O)=O)cc3)CC2)nc2ncccc12  volume of distribution (Sprague-Dawley rat, plasma; intravenous, 2 mg/kg): 1.51 ± 0.154 L/kg
CN(C)c1ccc(/C=C/c2cc(=O)cc(/C=C/c3ccc(N(C)C)cc3)o2)cc1  fluorescence lifetime (acetonitrile; 298 K, added: excitation 377 nm): 0.21 ns
F[C@@H]1[C@H](c2ccc(-c3cncnc3)cc2)[C@H](F)[C@H](F)C[C@@H]1F  hepatic clearance (hepatocyte stability; cryopreserved human hepatocytes; 1 µM): 6.2 mL/min/kg
O=C(Nc1cccc(C(=O)N2CCC(c3nc(-c4ccccc4)n[nH]3)CC2)c1)c1ccccc1  permeability (PAMPA; artificial lipid membrane; 30 min): 197 ± 81.6 ×10⁻⁶ cm/s
C=CC(=O)Nc1cc(Nc2nccc(-c3cn(C)c4ccccc34)n2)c(OC)cc1N(C)CCNC  recovery (storage stability; human dried blood spots; 24 h, -80 °C, medium QC level): 96.1%
C[C@]12COc3ccc(Oc4ccccc4)cc3[C@H]1CCN2  permeability (Pe) (lipid PAMPA; PBS; 10 µM, 16 h, pH 7.4, 25 °C): 3.16 ×10⁻⁶ cm/s
C=Cc1ccccc1[B-]12OC(=O)C(c3ccccc3)=N[N+]1=C(CC)c1ccc(N(CC)CC)cc1O2 (stereo not drawn)  fluorescence emission maximum (toluene): 510 nm
COc1ccc(-c2ccc([C@H]3[C@@H](F)[C@@H](F)C[C@@H](F)[C@H]3F)cc2)cc1OC  hepatic clearance (hepatocyte stability; cryopreserved mouse hepatocytes; 1 µM): 75 mL/min/kg
Fc1ccc(OCC2CN(Cc3ncn4ccccc34)CCC2(F)F)cc1 (stereo not drawn)  fu (equilibrium dialysis; mouse plasma): 0.046
O=C(CCC(F)(F)F)Nc1ccc(C2CCCCC2)cc1  hepatic clearance (liver microsome stability; cynomolgus liver microsomes; 1 µM): 37 mL/min/kg
CN(O)C(=O)CCC(=O)NCCCN(CCCCN(CCCNC(=O)CCC(=O)N(C)O)C(=O)CCC(=O)N(C)O)C(=O)CCC(=O)N(C)O.[89Zr]  intact complex (radio-TLC; aqueous buffer; 1 d, pH 7, 37 °C, 89Zr-labelled complex, added: DTPA 1000-fold excess): 94.5 ± 0.8%
CC(C)CC(=O)Nc1ccc([C@H]2[C@@H](F)[C@@H](F)C[C@@H](F)[C@H]2F)cc1  hepatic clearance (hepatocyte stability; cryopreserved human hepatocytes; 1 µM): 10 mL/min/kg
C=C(NC(=O)c1csc(-c2nc3c(cc2O)-c2nc(cs2)C(=O)NC(C(C)O)C(=O)NC(=C(C)OC)c2nc(cs2)C(=O)NC2c4nc(cs4)C(=O)NC(COC(=O)c4c5c6c(cccc6n4O)COC(=O)C(OC4CC(C)(O)C(N(C)C)C(C)O4)C2OC5)c2nc-3cs2)n1)C(N)=O (stereo not drawn)  volume of distribution (Sprague-Dawley rat, male, plasma; intravenous infusion, 18 mg/kg single dose): 31.7 L/kg
O=C(CCC(F)(F)F)Nc1ccc([C@H]2[C@@H](F)[C@@H](F)C[C@@H](F)[C@H]2F)cc1  hepatic clearance (liver microsome stability; dog liver microsomes; 1 µM): 9.3 mL/min/kg
COC(=O)[C@@]1(C)C=C(C(=O)Nc2cccc(C(=O)Nc3ccc(Nc4nccc(-c5cccnc5)n4)c(C)c3)c2)C(=O)CC1  compound remaining (Wistar rat, male, plasma; 1 µM, 20 min): 36.6%

A few entries again:
F[C@@H]1[C@H](c2ccc(-c3cncnc3)cc2)[C@H](F)[C@H](F)C[C@@H]1F  hepatic clearance (hepatocyte stability; cryopreserved human hepatocytes; 1 µM): 6.2 mL/min/kg
O=C(Nc1cccc(C(=O)N2CCC(c3nc(-c4ccccc4)n[nH]3)CC2)c1)c1ccccc1  permeability (PAMPA; artificial lipid membrane; 30 min): 197 ± 81.6 ×10⁻⁶ cm/s
